{"data": "Measured values from different studies", "ST6GAL1": "Beta-galactoside alpha-2,6-sialyltransferase 1 (ST6GAL1, Homo sapiens, UniProt P15907)", "EGFR L858R/T790M": "Epidermal growth factor receptor (EGFR, Homo sapiens, UniProt P00533, L858R/T790M)", "Cnr2": "Cannabinoid receptor 2 (Cnr2, Mus musculus, UniProt P47936)", "note": "Protocols differ between the studies behind these lines.", "UniProt P47936, sequence (whole entry, looked up)": "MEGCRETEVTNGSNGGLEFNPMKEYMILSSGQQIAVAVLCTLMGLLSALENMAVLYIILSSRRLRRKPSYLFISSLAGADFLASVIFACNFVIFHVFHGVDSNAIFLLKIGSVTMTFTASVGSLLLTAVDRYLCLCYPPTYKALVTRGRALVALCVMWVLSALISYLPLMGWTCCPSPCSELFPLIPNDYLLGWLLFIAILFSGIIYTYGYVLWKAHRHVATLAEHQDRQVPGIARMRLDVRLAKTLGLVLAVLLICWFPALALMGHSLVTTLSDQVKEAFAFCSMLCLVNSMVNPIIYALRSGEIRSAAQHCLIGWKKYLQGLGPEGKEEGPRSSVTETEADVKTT", "UniProt P15907, sequence (whole entry, looked up)": "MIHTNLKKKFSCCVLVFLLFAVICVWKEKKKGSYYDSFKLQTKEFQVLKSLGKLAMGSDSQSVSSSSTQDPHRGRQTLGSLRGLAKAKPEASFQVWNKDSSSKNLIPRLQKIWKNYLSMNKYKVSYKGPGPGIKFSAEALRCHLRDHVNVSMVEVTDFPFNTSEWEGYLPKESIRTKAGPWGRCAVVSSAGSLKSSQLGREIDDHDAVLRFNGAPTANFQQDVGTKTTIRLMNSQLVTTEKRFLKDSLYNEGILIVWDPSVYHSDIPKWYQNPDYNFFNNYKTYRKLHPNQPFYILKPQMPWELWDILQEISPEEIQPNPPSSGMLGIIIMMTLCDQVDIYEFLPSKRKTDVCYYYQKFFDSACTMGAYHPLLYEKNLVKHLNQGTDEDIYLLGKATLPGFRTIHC", "UniProt Q14432, sequence (whole entry, looked up)": "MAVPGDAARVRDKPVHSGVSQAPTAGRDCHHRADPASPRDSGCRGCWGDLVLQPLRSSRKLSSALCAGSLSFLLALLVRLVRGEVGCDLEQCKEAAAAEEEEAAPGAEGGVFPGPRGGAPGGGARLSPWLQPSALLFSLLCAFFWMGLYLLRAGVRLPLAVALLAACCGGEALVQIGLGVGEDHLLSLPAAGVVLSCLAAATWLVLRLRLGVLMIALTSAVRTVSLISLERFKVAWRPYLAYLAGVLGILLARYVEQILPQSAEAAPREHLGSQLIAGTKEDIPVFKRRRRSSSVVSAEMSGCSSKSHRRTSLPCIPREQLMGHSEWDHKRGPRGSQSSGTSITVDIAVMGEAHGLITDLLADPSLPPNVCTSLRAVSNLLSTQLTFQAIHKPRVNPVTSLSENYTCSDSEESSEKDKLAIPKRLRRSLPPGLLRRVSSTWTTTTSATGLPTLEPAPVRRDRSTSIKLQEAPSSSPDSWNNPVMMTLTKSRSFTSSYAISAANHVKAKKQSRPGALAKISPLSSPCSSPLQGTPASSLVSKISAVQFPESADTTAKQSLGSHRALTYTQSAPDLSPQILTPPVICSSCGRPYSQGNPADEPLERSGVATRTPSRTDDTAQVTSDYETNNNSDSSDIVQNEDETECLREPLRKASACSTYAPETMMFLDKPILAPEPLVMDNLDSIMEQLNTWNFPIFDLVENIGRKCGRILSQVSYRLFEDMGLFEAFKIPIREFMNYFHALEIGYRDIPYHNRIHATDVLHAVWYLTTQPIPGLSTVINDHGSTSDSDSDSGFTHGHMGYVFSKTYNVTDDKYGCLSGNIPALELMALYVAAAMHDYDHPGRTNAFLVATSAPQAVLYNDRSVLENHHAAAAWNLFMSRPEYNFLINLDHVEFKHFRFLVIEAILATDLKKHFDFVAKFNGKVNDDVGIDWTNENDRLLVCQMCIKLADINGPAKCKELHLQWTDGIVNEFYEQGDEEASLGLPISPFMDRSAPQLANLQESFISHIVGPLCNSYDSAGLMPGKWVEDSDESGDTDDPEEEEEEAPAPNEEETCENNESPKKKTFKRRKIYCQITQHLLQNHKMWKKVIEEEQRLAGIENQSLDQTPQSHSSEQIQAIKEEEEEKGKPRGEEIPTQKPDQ", "UniProt P62593, sequence (whole entry, looked up)": "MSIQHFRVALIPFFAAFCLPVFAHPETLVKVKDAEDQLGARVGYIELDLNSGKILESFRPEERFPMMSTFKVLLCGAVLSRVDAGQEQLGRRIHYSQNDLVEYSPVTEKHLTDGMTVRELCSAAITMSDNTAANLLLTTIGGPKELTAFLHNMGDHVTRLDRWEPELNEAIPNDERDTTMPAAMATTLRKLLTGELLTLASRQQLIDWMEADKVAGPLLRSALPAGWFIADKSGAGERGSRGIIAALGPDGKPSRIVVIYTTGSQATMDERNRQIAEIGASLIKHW", "UniProt Q6V1X1, sequence (whole entry, looked up)": "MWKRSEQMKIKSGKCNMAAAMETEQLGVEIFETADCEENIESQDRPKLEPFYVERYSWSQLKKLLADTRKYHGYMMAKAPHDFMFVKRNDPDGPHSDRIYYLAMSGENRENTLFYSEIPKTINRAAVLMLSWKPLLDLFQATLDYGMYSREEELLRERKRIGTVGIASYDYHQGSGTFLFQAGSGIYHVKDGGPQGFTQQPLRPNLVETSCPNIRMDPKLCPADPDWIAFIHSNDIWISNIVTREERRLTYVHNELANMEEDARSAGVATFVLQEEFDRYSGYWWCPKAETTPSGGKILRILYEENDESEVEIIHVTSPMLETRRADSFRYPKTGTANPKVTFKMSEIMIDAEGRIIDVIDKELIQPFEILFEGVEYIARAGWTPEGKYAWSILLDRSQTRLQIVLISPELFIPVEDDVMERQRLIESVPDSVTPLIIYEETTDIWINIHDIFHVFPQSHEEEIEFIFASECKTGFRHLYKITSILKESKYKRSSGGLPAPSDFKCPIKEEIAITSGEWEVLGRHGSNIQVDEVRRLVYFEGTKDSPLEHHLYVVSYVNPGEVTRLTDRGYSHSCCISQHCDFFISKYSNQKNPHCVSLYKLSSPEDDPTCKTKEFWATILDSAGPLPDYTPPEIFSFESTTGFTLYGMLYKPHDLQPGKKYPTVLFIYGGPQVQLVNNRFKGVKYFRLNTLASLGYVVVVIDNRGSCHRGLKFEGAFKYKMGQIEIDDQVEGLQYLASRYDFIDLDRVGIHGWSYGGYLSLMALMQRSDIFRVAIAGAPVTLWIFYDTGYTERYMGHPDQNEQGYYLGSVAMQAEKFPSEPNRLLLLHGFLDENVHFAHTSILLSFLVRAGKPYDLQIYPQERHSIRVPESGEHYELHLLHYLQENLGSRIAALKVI", "UniProt O60930, sequence (whole entry, looked up)": "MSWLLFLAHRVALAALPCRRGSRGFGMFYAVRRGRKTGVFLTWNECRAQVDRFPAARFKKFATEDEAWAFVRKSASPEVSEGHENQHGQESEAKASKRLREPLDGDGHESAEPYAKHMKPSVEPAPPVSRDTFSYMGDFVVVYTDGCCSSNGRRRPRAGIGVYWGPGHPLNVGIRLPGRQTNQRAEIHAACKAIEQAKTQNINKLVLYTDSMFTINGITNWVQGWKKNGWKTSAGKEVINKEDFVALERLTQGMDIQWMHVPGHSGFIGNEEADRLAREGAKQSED", "UniProt Q9HC52, sequence (whole entry, looked up)": "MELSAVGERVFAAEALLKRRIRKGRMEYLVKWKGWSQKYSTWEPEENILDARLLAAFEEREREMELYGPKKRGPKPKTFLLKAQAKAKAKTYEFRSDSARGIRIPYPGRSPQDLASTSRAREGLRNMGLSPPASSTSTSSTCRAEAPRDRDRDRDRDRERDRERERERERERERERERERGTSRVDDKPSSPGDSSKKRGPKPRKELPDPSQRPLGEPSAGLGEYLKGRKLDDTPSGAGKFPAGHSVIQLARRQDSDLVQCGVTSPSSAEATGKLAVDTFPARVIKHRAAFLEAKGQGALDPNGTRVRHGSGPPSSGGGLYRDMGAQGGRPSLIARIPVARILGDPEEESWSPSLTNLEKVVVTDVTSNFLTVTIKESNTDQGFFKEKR", "UniProt Q8TCC7, sequence (whole entry, looked up)": "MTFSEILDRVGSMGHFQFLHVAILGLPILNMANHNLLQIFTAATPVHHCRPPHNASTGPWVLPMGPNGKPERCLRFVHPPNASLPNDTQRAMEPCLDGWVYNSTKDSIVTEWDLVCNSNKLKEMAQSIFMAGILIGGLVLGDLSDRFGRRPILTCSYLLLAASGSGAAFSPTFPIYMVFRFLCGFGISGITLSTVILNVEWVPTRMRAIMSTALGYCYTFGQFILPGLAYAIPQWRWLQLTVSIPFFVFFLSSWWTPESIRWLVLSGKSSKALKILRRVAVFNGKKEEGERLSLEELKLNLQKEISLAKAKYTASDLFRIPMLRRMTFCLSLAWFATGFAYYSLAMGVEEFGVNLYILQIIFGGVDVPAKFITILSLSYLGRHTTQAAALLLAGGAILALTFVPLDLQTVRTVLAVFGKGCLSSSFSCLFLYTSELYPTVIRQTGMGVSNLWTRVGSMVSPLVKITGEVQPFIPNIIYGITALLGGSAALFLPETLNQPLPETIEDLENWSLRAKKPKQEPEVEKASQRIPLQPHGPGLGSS", "UniProt P16390, sequence (whole entry, looked up)": "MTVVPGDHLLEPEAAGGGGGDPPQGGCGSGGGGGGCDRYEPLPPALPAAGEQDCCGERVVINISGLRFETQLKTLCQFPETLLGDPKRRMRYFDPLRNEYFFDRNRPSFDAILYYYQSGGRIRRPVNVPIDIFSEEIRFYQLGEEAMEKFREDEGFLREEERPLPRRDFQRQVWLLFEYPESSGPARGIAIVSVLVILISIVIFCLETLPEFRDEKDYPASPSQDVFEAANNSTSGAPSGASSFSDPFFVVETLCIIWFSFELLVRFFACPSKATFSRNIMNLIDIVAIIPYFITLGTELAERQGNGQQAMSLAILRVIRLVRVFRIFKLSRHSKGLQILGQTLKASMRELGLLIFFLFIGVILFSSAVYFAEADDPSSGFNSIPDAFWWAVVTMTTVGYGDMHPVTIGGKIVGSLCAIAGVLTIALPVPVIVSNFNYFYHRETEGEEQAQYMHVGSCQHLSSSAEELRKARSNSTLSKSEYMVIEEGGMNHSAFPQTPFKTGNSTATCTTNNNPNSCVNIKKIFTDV"}
{"SMILES": "C[C@H](CCC(=O)N[C@H](CC(c1c[nH]c2ccc(Cl)cc12)c1c[nH]c2ccc(Cl)cc12)C(=O)O)[C@H]1CC[C@H]2[C@@H]3CC[C@@H]4C[C@H](O)CC[C@]4(C)[C@H]3CC[C@]12C", "target": "ST6GAL1", "scale": "baseline: ST3GAL1 IC50 over ST6GAL1 IC50", "selectivity ratio": "> 76"}
{"SMILES": "CCCCCCCCCCCCCCOc1c(O)cc(C(=O)O[C@@H]2Cc3c(O)cc(O)cc3O[C@@H]2c2cc(O)c(O)c(O)c2)cc1O", "target": "EGFR L858R/T790M", "test": "kinase activity", "scale": "baseline: EGFR T790M/L858R over wild-type EGFR", "selectivity ratio": 1.49}
{"SMILES": "CC(=O)OC1OCC2C=C(C3(C)CCCCC3)CCC21 (single isomer, unassigned; (-))", "target": "Peptidyl-prolyl cis-trans isomerase F, mitochondrial (PPIF, Homo sapiens, UniProt P30405)", "test": "PPIase enzyme activity, inhibitor", "scale": "baseline: PPIF over cyclophilin A", "selectivity ratio": "~3 fold"}
{"SMILES": "Cc1cc2c(cc1Cl)-c1c(c(C(=O)NN3CCCCC3)nn1-c1ccc(Cl)cc1Cl)C2", "target": "Cnr2", "test": "radioligand displacement", "system": "mouse brain and spleen homogenates", "setting": "together with: [3H]CP-55,940", "scale": "baseline: Ki CB1 over Ki CB2", "selectivity ratio": 4.3}
{"SMILES": "CCc1c(Cl)cccc1N1CCN(C[C@H](F)CCNC(=O)c2cc3ccccc3[nH]2)CC1", "target": "dopamine D3 and D2 receptors", "test": "binding", "scale": "baseline: Ki D2 over Ki D3", "selectivity ratio": "217 fold"}
{"SMILES": "COC(=O)C=CCCC(NC(=O)c1ccncc1C(=O)O)C(=O)NC(C(=O)N1CC(=O)CC1C(=O)NC(C(=O)NC(C(N)=O)C1CCCCC1)C1CCCCC1)C(C)(C)C (centres unmarked)", "target": "Protein-glutamine gamma-glutamyltransferase 6 (Homo sapiens, UniProt O95932)", "test": "transamidation activity", "scale": "baseline: TG6 over FXIII-A2", "selectivity ratio": 1}
{"SMILES": "CCCCCCCCCCOc1c(O)cc(C(=O)OC2Cc3c(O)cc(O)cc3OC2c2cc(O)c(O)c(O)c2)cc1O (centres unmarked)", "target": "EGFR L858R/T790M", "test": "kinase activity", "scale": "baseline: EGFR T790M/L858R over wild-type EGFR", "selectivity ratio": 1.62}
{"SMILES": "CC[C@@H]1NC(=O)[C@@H]2CSSC[C@@H]3NC(=O)[C@H](CCCCN)NC(=O)[C@@H]4CSSC[C@H](NC(=O)[C@H](CC(=O)O)NC(=O)[C@H](CCCCN)NC(=O)[C@@H]5CCCN5C(=O)[C@H]([C@@H](C)O)NC(=O)[C@H](CCCNC(=N)N)NC(=O)[C@@H](NC(=O)[C@H](CO)NC(=O)[C@H](C)N)CSSC[C@H](NC(=O)[C@H](CCCCN)NC(=O)CNC(=O)[C@H](Cc5ccc(O)cc5)NC(=O)[C@@H]5CCCN5C(=O)[C@H](CSSC[C@@H](C(N)=O)NC(=O)[C@H](CCCNC(=N)N)NC(=O)[C@H](CC(N)=O)NC3=O)NC(=O)CNC(=O)[C@H]([C@@H](C)O)NC(=O)[C@H](CCC(=O)O)NC(=O)[C@H](CCCCN)NC1=O)C(=O)N[C@@H](CCSC)C(=O)N[C@@H](CC(N)=O)C(=O)N[C@@H](CCCNC(=N)N)C(=O)N[C@@H](CCCCN)C(=O)N4)C(=O)N[C@@H](C)C(=O)N[C@@H](CC(=O)O)C(=O)N1CCC[C@H]1C(=O)N2", "target": "Potassium voltage-gated channel subfamily A member 3 (Kcna3, Mus musculus, UniProt P16390)", "test": "potassium current, inhibitor, whole-cell patch clamp", "scale": "baseline: IC50 Kv1.1 over IC50 Kv1.3", "selectivity ratio": "> 2000 fold"}
{"SMILES": "C[C@H](CCC(=O)N[C@H](CC(c1c[nH]c2ccc(N=[N+]=[N-])cc12)c1c[nH]c2ccc(N=[N+]=[N-])cc12)C(=O)O)[C@H]1CC[C@H]2[C@@H]3CC[C@@H]4C[C@H](O)CC[C@]4(C)[C@H]3CC[C@]12C (some centres unmarked)", "target": "ST6GAL1", "scale": "baseline: ST3GAL1 IC50 over ST6GAL1 IC50", "selectivity ratio": "> 153"}
{"SMILES": "C[C@H](NC(=O)[C@H](Cc1ccccc1)NC(=O)c1ccc(Br)cc1)C(=O)N[C@H](C(=O)N[C@@H](CCCC[N+](C)(C)C)C(=O)N[C@@H](CO)C(N)=O)C1CCCC1", "target": "Chromobox protein homolog 8 (Homo sapiens, UniProt Q9HC52)", "test": "competitive fluorescence polarization", "scale": "baseline: Cbx7 over Chromobox protein homolog 8", "selectivity ratio": "30 fold"}
{"SMILES": "Cc1cc2c(cc1Cl)Cc1c(C(=O)NC3C4(C)CCC(C4)C3(C)C)nn(-c3ccc(Cl)cc3Cl)c1-2 (centres unmarked)", "target": "Cnr2", "test": "radioligand displacement", "system": "mouse brain and spleen homogenates", "setting": "together with: [3H]CP-55,940", "scale": "baseline: Ki CB1 over Ki CB2", "selectivity ratio": 196}
{"SMILES": "Nc1nc(Cl)nc2c1ncn2Cc1cc(OCC(F)F)cc(OC(F)F)c1", "target": "cAMP and cAMP-inhibited cGMP 3',5'-cyclic phosphodiesterase 10A, catalytic domain (PDE10A, Homo sapiens, UniProt Q9Y233)", "test": "enzyme activity, inhibitor", "scale": "baseline: PDE10A over PDE8A1", "selectivity ratio": "111 fold"}
{"SMILES": "CCC1(CC)C(=O)N(c2cccc(CN3CCc4cc5c(cc4C3)OCO5)c2)C1=O", "target": "Dipeptidyl peptidase 8 (Homo sapiens, UniProt Q6V1X1)", "scale": "baseline: Ki DPP9 over Ki target", "selectivity ratio": 4}
{"SMILES": "CNC(=O)C1OC(n2cnc3c(NCc4cccc(I)c4)ncnc32)C(O)C1O (centres unmarked)", "target": "Organic anion transporter 3 (SLC22A8, Homo sapiens, UniProt Q8TCC7)", "test": "inhibitor", "scale": "baseline: OAT1 IC50 over OAT3 IC50", "selectivity ratio": "≥ 10 fold"}
{"SMILES": "O=C(Oc1nsnc1N1CCOCC1)c1ccccc1", "target": "Beta-lactamase TEM (bla, Escherichia coli, UniProt P62593)", "test": "enzyme activity, colorimetric nitrocefin", "scale": "baseline: IgA1 protease over bla", "selectivity ratio": "~3 fold"}
{"SMILES": "COCCCN1CCc2c(Cc3ccc(Cl)cc3)[nH]c3c(OC(F)F)ccc(c23)C1=O", "target": "cGMP-inhibited 3',5'-cyclic phosphodiesterase 3A (PDE3A, Homo sapiens, UniProt Q14432)", "test": "enzyme activity", "scale": "baseline: IC50 PDE5A1 over PDE3A", "selectivity ratio": "> 1200"}
{"SMILES": "C=C(C)C1CCc2c(c(C)cc(O)c(=O)c2O)C1 (centres unmarked)", "target": "Ribonuclease H1 (Homo sapiens, UniProt O60930)", "scale": "baseline: HIV-1 RNase H over Ribonuclease H1", "selectivity ratio": "6 fold"}
{"note": "Repeated from above:"}
{"SMILES": "Cc1cc2c(cc1Cl)Cc1c(C(=O)NC3C4(C)CCC(C4)C3(C)C)nn(-c3ccc(Cl)cc3Cl)c1-2 (centres unmarked)", "target": "Cnr2", "test": "radioligand displacement", "system": "mouse brain and spleen homogenates", "setting": "together with: [3H]CP-55,940", "scale": "baseline: Ki CB1 over Ki CB2", "selectivity ratio": 196}
{"SMILES": "Nc1nc(Cl)nc2c1ncn2Cc1cc(OCC(F)F)cc(OC(F)F)c1", "target": "cAMP and cAMP-inhibited cGMP 3',5'-cyclic phosphodiesterase 10A, catalytic domain (PDE10A, Homo sapiens, UniProt Q9Y233)", "test": "enzyme activity, inhibitor", "scale": "baseline: PDE10A over PDE8A1", "selectivity ratio": "111 fold"}
